Measurements collected from several papers.
A part holds a random share of what one study measured. Substitutions count along the parent as printed.

Series 1 — method: protein-binding microarray; form: double-stranded DNA, one strand shown; matrix: in vitro; tested at: 250 nM; notes: 60-bp whole probe; together with: salmon DNA 0.4 mg/ml; baseline: random background probes; reading: higher = stronger binding; shared flanks, not repeated: GCCTAGCAC … GTCTTGATTCGCTTGACGCTGCTG
Target: Interferon regulatory factor 5, full length, phosphomimetic (IRF5, Homo sapiens, UniProt Q13568-2, residues 1-514, K96S/S451D/S453D/S456D/S462D)
For `TGAGGACTGGGACTGGGTTAGTGCTAG`, the log fluorescence was -0.685 z-score.
For `CAATATTAGAGTCTCAACCCGTGCTAG`, the log fluorescence was -0.0779 z-score.
`TTAGACTTCAGTTCCGATTAGTGCTAG` gave a log fluorescence of 1.13 z-score.
For `TTAGGACTGGACTGTCGGTTAGTGCTA`, the log fluorescence was -0.0842 z-score.
With `TCAAATCTCACTCTGTCACTGTGCTAG` the log fluorescence was 0.718 z-score.
`CAGAGTCTAGCCATTGTGGGTGTGCTA` has a log fluorescence of -0.551 z-score.
`GACGGTTTCGGACTGGGTACGTGCTAG` has a log fluorescence of 4.18 z-score.
With `CCTCCTTACTTTATGTAGGAGTGCTAG` the log fluorescence was -0.314 z-score.
With `TTAGATTTCAGACGGGATTAGTGCTAG` the log fluorescence was 0.307 z-score.
For `TGAGGTTTCCTTATCCTTTAGTGCTAG`, the log fluorescence was 0.428 z-score.
The log fluorescence of `TCATGTGCCCATCTCTGACTGTGCTAG` is reported as -0.276 z-score.
`AAATGTGTTAGAAACAGGTTGTGCTAG` gave a log fluorescence of 0.157 z-score.
`TCATCTATCTTAAATAGGACTGTGCTA` gave a log fluorescence of 0.606 z-score.
With `TTAGATTTCTGGTTTCGATTAGTGCTA` the log fluorescence was 9.14 z-score.
The log fluorescence of `CTTTCTTTATGTACTCTCTCCGTGCTA` is reported as 1.74 z-score.
The log fluorescence of `TTAGGTCTCGGACTAGGTTAGTGCTAG` is reported as -0.171 z-score.
With `GACGGTCTCCTTCTCCTGAAGTGCTAG` the log fluorescence was -0.107 z-score.
For `CTTTTTAGAAATTTCTTTCTGTGCTAG`, the log fluorescence was 2.37 z-score.
`GTTTTTTTCTATATGCAATGGTGCTAG` gave a log fluorescence of 2.16 z-score.
With `TTGGGACTGCTTATCCTTTAGTGCTAG` the log fluorescence was -0.467 z-score.
`GACAGTATCGACACTGGGGACGTGCTA` gave a log fluorescence of 2.89 z-score.
For `TCATTTATGTACTCTCTCACTGTGCTA`, the log fluorescence was 0.805 z-score.
`GGTGTCTAGGTTAGGGATTAGTGCTAG` has a log fluorescence of -0.334 z-score.
The log fluorescence of `GACGGTTCCGGTTTCAGGACGTGCTAG` is reported as 2.05 z-score.
`GACGGACTACTTATCCTGACGTGCTAG` has a log fluorescence of -0.343 z-score.

Series 2 — target: CCNE1, cyclin fold, Cln2 fusion (human); method: yeast growth competition, sequencing; matrix: yeast; notes: weak parent motif; baseline: not given; reading: higher = stronger binding
Parent: WEE1 docking peptide (human); HKTFRKLRLFDTP
Under “normalised enrichment score”, `P13G` is recorded as -0.287.
`D11A` — result for “normalised enrichment score”: 0.324.
`F4D` — result for “normalised enrichment score”: 0.358.
Under “normalised enrichment score”, `K2F` is recorded as 0.699.
`T3V`: “normalised enrichment score” 2.08.
`P13K`: “normalised enrichment score” 0.195.
`F10T`: “normalised enrichment score” 0.521.
`T3S`: “normalised enrichment score” 0.0417.
For `H1L`, “normalised enrichment score” read -0.288.
For `D11P`, “normalised enrichment score” read 0.796.
`F10Y` — result for “normalised enrichment score”: -0.0954.
`K6E`: “normalised enrichment score” 0.438.
`L7Y`: “normalised enrichment score” 0.581.
`T3W`: “normalised enrichment score” 0.86.
`L7M`: “normalised enrichment score” -0.665.

Series 3 — method: DHFR PCA, deep sequencing; matrix: yeast; together with: (+)-ABA 58 µM; baseline: wild-type fitted maximum; reading: higher = stronger binding
Target: ABI1, truncated, D143A, DHFR fusion (Arabidopsis thaliana)
Notes: methotrexate growth selection, single substitutions
Parent: PYL1, truncated, DHFR fusion (Arabidopsis thaliana); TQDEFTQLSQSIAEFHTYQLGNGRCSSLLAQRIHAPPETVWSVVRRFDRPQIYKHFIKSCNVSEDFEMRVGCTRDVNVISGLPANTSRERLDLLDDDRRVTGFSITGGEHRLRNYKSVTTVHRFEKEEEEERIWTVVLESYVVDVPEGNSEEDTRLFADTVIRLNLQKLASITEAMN; partner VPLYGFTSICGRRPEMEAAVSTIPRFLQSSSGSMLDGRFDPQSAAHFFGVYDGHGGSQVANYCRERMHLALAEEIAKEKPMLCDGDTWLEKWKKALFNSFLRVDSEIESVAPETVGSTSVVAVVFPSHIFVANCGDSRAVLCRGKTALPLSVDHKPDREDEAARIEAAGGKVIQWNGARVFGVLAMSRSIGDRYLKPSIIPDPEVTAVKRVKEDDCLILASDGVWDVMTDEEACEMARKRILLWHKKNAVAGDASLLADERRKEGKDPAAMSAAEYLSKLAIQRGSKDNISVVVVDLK
For `D75V`, “relative binding score” read 91.3%.
`P50C`: “relative binding score” 27.1%.
Under “relative binding score”, `R99C` is recorded as 76.3%.
`A158S` — result for “relative binding score”: 60.1%.
Under “relative binding score”, `I57E` is recorded as -12.3%.
`L8N` — result for “relative binding score”: 58.4%.
`T1D`: “relative binding score” 82.1%.
Under “relative binding score”, `I79A` is recorded as 85.9%.
For `V121L`, “relative binding score” read 75.9%.
Under “relative binding score”, `D65L` is recorded as 67.7%.
Under “relative binding score”, `F103P` is recorded as -12.7%.
For `S63M`, “relative binding score” read 77.1%.
`N114W` — result for “relative binding score”: -1.87%.
`E151C`: “relative binding score” 81.3%.

Series 4 — method: protein binding microarray; form: double-stranded DNA, one strand shown; matrix: in vitro; tested at: not given; baseline: not given; reading: higher = stronger binding
Target: Histone acetyltransferase KAT6A, both winged helices, GST fusion (KAT6A, Homo sapiens, UniProt Q92794, residues 1-181)
Notes: 8-mer, flanks averaged, mean of 2 arrays, mostly near background
Target sequence (chain): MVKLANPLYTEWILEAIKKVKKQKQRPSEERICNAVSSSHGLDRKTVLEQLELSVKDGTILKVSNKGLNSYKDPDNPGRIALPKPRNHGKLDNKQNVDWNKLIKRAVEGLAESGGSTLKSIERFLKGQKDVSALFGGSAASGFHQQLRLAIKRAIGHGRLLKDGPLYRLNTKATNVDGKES
The E-score of `CGTCGATA` is reported as 0.225.
The E-score of `TAGCAGCA` is reported as -0.229.
`AGGGGAGC` gave an E-score of -0.109.
`CAGGCGCA` gave an E-score of 0.133.
`ATCAGTGC` gave an E-score of -0.0851.
The E-score of `GCCTCAAC` is reported as -0.165.
For `ATTACACA`, the E-score was -0.0398.
The E-score of `ACTCATGC` is reported as -0.0647.
With `CACTAATG` the E-score was -0.132.
`TCATAGAA` gave an E-score of 0.00507.
With `AACGGTAC` the E-score was 0.195.
`AAATGAAA` has an E-score of -0.0312.
The E-score of `CCATCCTA` is reported as -0.127.
`CCGTTCTC` gave an E-score of 0.12.
`CTCTGGGC` has an E-score of -0.127.
For `GCGGTCAC`, the E-score was 0.199.
The E-score of `TACCGTAA` is reported as 0.155.
`TCTAACAA` gave an E-score of -0.0485.
`CACCACCC` has an E-score of 0.0186.
`AAAGAGAT` gave an E-score of -0.0613.
For `CATGACGG`, the E-score was 0.208.
`GTCAGAGA` gave an E-score of -0.122.
With `AGGTTCTC` the E-score was -0.0171.
`CTGGGGGC` gave an E-score of -0.165.
For `CGCCACCC`, the E-score was 0.121.

Series 5 — method: RNA Bind-n-Seq; form: RNA; matrix: in vitro; tested at: 365 nM; baseline: no-protein control; reading: higher = stronger binding
Target: RNA binding protein fox-1 homolog 2, RRM domain, GST-SBP tag (RBFOX2, Homo sapiens, UniProt O43251-10, residues 100-194)
Notes: natural RNA segment, single round, ends assumed
Residues (chain): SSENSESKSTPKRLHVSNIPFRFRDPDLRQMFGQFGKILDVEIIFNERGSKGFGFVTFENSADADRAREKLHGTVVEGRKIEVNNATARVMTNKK
Under “RBNS enrichment (R)”, `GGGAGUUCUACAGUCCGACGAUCUGCUCCUGCCAGCAACCCACCACCACCGGCUCUCAUGUCUACAACUCAGAGCCGCCCACCCUGGAUGAAUUCUGGUCCUUCAGAGAAUCGGCCCUACCAUGGCAUGCAUGUGGAAUUCUCGGGUGCCAA` is recorded as 6.17.
`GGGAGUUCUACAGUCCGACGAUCCACCUCAGCUACAGCCUGACAGGAUGCAUGAUGCGCGUCCUGCCCAGGGCCACAGCUGCCACCUGCCAGCCUCUGGAGCCACCACCAUUUGGGUCUCCUCAGGCCCCCGGUGGAAUUCUCGGGUGCCAA` — result for “RBNS enrichment (R)”: 0.275.
`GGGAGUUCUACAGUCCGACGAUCCAUUAUUUUUCCAAGUGUUUAGGUAAUAAUGUAUUACUUUGAAUUCAGAUUAAUGUUCUACUACUUGUGACUGAGAAAAGUUUAAUGCCGGCAUGGUAAAAGGAAGCUGUUGGAAUUCUCGGGUGCCAA`: “RBNS enrichment (R)” 1.6.
For `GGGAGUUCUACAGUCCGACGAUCCCUGAUUGAGUUCGCCUCACACCAGCAUCUUCCCUUAUUCUGUCUGCCUAAGCACAUAACUUUCAAGUUUGUACUAUGAUCCAUGCACUCAUUAAUACCUUGCUCUGCAGUGGAAUUCUCGGGUGCCAA`, “RBNS enrichment (R)” read 0.333.
For `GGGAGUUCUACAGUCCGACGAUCCUGCUAUUCAUUAAAACUUGUAUUCCAGUCUUGCCAGCUUAAGGAGAUCAAGAUAUUAAGAGGUAUCCUUGAUUUAUUUUCCAGUAUUCAGUAGUAAAAUUUUCCUGUCCUGGAAUUCUCGGGUGCCAA`, “RBNS enrichment (R)” read 0.868.
`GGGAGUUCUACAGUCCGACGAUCUUAGAUUUGCCGUACCAAUCUCUGAAUGCCCCAUAAUUAUUAUUUCCAGUGUUUGGGAUGACCAGGAUCCCAAGCCUCCUGCUGCCACAAUGUUUAUAAAGGCCAAAUGAUGGAAUUCUCGGGUGCCAA` — result for “RBNS enrichment (R)”: 0.484.
`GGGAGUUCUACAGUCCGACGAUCCCAUGCCCACUGCUGGUGCCAGGGUGGGUGUCCAUGUGCACCCGGCCUGGAUGCCAGCUGUGUCCUUCGGGGGCGUGCGUGUAACUGUAGUGUAGUCAGGUGCUCAAUGGUGGAAUUCUCGGGUGCCAA`: “RBNS enrichment (R)” 0.391.
`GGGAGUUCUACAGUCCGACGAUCGCAGCUGGUUUUGGCAUCCCCAGCAUCACCACUCUCCCAACCCAUCACCGUGACUGCAGUUCCUGCCCCCAUUCUCUUGGGGUCAGGGAGGGGCUGGGAAGGGCUACUGAUGGAAUUCUCGGGUGCCAA`: “RBNS enrichment (R)” 0.343.
Under “RBNS enrichment (R)”, `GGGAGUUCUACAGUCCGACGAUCCUCCAUCUUUUGGUGCAUUGGCCAUAUUACUGUGCCAAUAGUGUCUUAACUCAUGUCCCAUCUAUCCUCAGCUGGCCUUGGACCUACAUAGGAGUUGAAUGGGGAGGGGCUGGAAUUCUCGGGUGCCAA` is recorded as 0.336.
`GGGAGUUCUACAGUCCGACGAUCAGCACAACACAAAUUCCAUCCAAGAGGAGACUCUUUCCCAUGGUGUUGUCCUGGGUCUGGCAGUGGUUGUGAUUUAUAGCCAAUUGUGCUAAAGGAUUUUUCUACCUUGAUGGAAUUCUCGGGUGCCAA` — result for “RBNS enrichment (R)”: 0.287.
`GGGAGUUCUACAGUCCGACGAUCUGGAAUUGUUGGAAGAAGAGUUUGCAGAAGGUUAGGAAUGGGUAGAUAGCUAAGUCCUAAUCUAUGGGUACAUUGUUGUGUCCCAAACCAAAAUUUUCCUUAUCCACAAUUGGAAUUCUCGGGUGCCAA` — result for “RBNS enrichment (R)”: 0.351.
`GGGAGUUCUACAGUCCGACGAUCAACCCAUAAGCAAAUCAGAUAACCCACUGACUAUGAGAAUUACUUUAUAUAGAUAAUUCUUGACUGUAAAACAUUUUGACCAGUGUUUUACAACAUGUACAUAAGAAUACUGGAAUUCUCGGGUGCCAA` — result for “RBNS enrichment (R)”: 0.407.
